Assay results from different studies.
Lines come from different studies, so protocols differ. Several values in a cell are separate wells, animals, samples, runs or records.

Compound = Cn1ncc2cc(-c3cncc(Cl)c3N3CCC4(CCNC4=O)CC3)ccc21; target or system = LS174T; assay = gene expression, microarray, item: PTGS2 mRNA; conditions = concentration not given, 24 h; how to read = baseline: untreated cells; measurement = log2 fold change; value = -2.89
Compound = CCCCC(=O)NC(c1ccc(N(CC)CC)cc1)c1ccc2cccnc2c1O (stereo not shown); target or system = Trypanosoma cruzi; assay = reporter mRNA translation, inhibitor, item: Renilla luciferase mRNA; test system = cell-free extract; conditions = concentration not given, test 2; how to read = baseline: positive over negative control; measurement = translation activity; value = 106% and 131%
Compound = CNS(=O)(=O)Nc1nccc(Cc2c(C)c3ccc(Oc4ncccc4F)cc3oc2=O)c1F; target or system = Hs 294T; assay = cell viability; conditions = 7 days; measurement = IC50; value = 5.06 nM
Compound = CN1CCCNC(=O)c2cccc(c2)C(=O)NCCCN(C)CCCNc2cccc3c2C(=O)c2cccc(c2C3=O)NCCC1; target or system = SAS; assay = RNA-Seq, item: SLFN11 mRNA; conditions = 1 µM, 6 h; how to read = baseline: untreated cells; measurement = log2 fold change; value = -1.89
Compound = Cc1ncsc1-c1ccc(C(C)NC(=O)C2CC(O)CN2C(=O)C(NC(=O)CCCCCCCCCCN2CCCC(Nc3ncc(Cl)c(Nc4ccccc4S(=O)(=O)C(C)C)n3)C2)C(C)(C)C)cc1 (stereo not shown); target or system = 22Rv1; assay = RNA-seq, item: OBSCN mRNA; conditions = concentration not given; how to read = baseline: DMSO; measurement = log2 fold change; value = -1
Compound = CCn1nc(C)c(CN2CCCC(C(=O)c3cccc(OC(C)C)c3)C2)c1C (stereo not shown); target or system = Trypanosoma cruzi; assay = reporter mRNA translation, inhibitor, item: Renilla luciferase mRNA; test system = cell-free extract; conditions = concentration not given, test 2; how to read = baseline: positive over negative control; measurement = translation activity; value = 119% and 105%
Compound = CO[C@@H]1[C@@H](OC(N)=O)[C@@H](O)[C@H](Oc2ccc3c(O)c(NC(=O)c4ccc(O)c(CC=C(C)C)c4)c(=O)oc3c2C)OC1(C)C; target or system = DLD-1 BRCA2-/-; conditions = 50 µM, replicate B; how to read = baseline: untreated; measurement = colony survival; value = 40.6%
Compound = CCOc1cncc(-c2ccc(NC(=O)C3(c4ccnc(NS(=O)(=O)C5CC5)n4)CCOCC3)nc2)n1; target or system = lung cancer; assay = cell viability, CellTiter-Glo; test system = DMSO 0.1%; conditions = 72 h, line code 2184; measurement = IC50; value = 8 nM
Compound = CCN(CC)CC(=O)Nc1cccc(-n2cc(-c3ccc4ccc(-c5cn(-c6cccc(NC(=O)CN(CC)CC)c6)nn5)cc4c3)nn2)c1; target or system = RCC4; assay = PCR angiogenesis array, item: ANGPT1; conditions = 5 x IC50, 4 h, normoxia; how to read = baseline: untreated; measurement = fold regulation; value = -1.06
Compound = CC(C)c1ccc(N(C)c2ccc3c(c2)OCC[C@H]3CNc2cnccc2C(=O)O)cc1; target or system = UACC-812; assay = cell growth or viability, ATP luminescence; conditions = 7 days; measurement = IC50; value = ≥ 10000 nM

For quick reference, copied from above:
Compound = CCCCC(=O)NC(c1ccc(N(CC)CC)cc1)c1ccc2cccnc2c1O (stereo not shown); target or system = Trypanosoma cruzi; assay = reporter mRNA translation, inhibitor, item: Renilla luciferase mRNA; test system = cell-free extract; conditions = concentration not given, test 2; how to read = baseline: positive over negative control; measurement = translation activity; value = 106% and 131%
